Measurements of several laboratories.
Each numbered part is a random draw from the data of one study; scales do not carry over between parts.

Block 1
Target: Prothrombin, mature alpha-thrombin (F2, Homo sapiens, UniProt P00734)
Technique: aptamer microarray, sandwich
Form: DNA with 2'F-ANA
Matrix: in vitro
Concentration: 200 nM
Notes: whole 15-mer aptamer, many near background
With: Cy3 exosite-II aptamer, 400 nM
Direction: higher = stronger binding
`GGTTGGTGTGGTTGG (2'F-ANA at 5 7 8 9 10 11 12 13 15)`: “mean fluorescence intensity” 61.7 a.u.
`GGTTGGTGTGGTTGG (2'F-ANA at 1 2 3 4 9 12 13 14)` — result for “mean fluorescence intensity”: 60 a.u.
For `GGTTGGTGTGGTTGG (2'F-ANA at 4 5 9 12 13 15)`, “mean fluorescence intensity” read 74.9 a.u.

Block 2
Target: Centromere-binding protein 1, full length, N-terminal tag (CBF1, Saccharomyces cerevisiae, UniProt P17106, residues 1-351)
Chain of UniProt P17106 (whole entry, looked up): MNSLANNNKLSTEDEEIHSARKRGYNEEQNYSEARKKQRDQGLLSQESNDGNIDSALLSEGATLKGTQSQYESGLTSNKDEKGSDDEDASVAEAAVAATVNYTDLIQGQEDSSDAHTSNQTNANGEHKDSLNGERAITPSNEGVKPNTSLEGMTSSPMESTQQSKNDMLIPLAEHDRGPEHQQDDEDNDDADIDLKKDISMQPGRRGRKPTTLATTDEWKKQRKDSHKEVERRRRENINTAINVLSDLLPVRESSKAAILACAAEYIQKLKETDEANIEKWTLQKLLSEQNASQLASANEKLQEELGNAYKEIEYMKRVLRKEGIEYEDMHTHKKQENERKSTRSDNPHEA
Technique: protein-binding microarray
Form: double-stranded DNA, one strand shown
Matrix: in vitro
Concentration: 0.8 µM
Notes: whole 60-bp probe, no competitor
Direction: higher = stronger binding
With `CTAGTGTCATCCGCGGGTGAGGTAAACGCTGGCTTCGTCTTGATTCGCTTGACGCTGCTG` the fluorescence intensity was 464 a.u.
The fluorescence intensity of `TGTACGAAGCTATACGTGATAATTATAGTAGTTAGGGTCTTGATTCGCTTGACGCTGCTG` is reported as 577 a.u.
For `TGTACGAAGCTATTATGCGTGCTTATAGTAGTTAGGGTCTTGATTCGCTTGACGCTGCTG`, the fluorescence intensity was 522 a.u.
With `CTATGAACTCCGCGGCTCGTGCTATATTCTTGTTTCGTCTTGATTCGCTTGACGCTGCTG` the fluorescence intensity was 586 a.u.

Block 3
Target: Interferon regulatory factor 3, full length, phosphomimetic (IRF3, Homo sapiens, UniProt Q14653, residues 1-427, S386D/S396D/S398D/S402D/T404D/S405D)
Chain of UniProt Q14653 (whole entry, unmodified, looked up): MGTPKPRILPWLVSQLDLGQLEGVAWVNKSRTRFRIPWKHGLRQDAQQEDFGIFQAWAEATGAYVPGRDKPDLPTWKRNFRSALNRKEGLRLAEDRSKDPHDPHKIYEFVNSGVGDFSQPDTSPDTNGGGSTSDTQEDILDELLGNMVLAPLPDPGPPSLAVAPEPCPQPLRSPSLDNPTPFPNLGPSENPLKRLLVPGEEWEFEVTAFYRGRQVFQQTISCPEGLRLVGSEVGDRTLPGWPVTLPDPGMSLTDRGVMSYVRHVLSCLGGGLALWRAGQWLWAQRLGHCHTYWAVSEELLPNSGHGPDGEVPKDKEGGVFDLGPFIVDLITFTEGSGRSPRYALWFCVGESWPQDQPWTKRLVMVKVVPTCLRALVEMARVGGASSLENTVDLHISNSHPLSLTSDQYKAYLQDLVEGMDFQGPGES
Technique: protein-binding microarray
Form: double-stranded DNA, one strand shown
Matrix: in vitro
Concentration: 2540 nM top
Notes: 60-bp whole probe
With: salmon DNA 0.4 mg/ml
Relative to: random background probes
Direction: higher = stronger binding
For `GCCTAGCACGGCGGACTGGGTCTCGGGACGTGCTAGGTCTTGATTCGCTTGACGCTGCTG`, “fitted relative affinity” read -1.28 z-score.
`GCCTAGCACGCTTCCTCACCTGATGCCTCGTGCTAGGTCTTGATTCGCTTGACGCTGCTG` — result for “fitted relative affinity”: 0.5 z-score.
`GCCTAGCACTTAGAACTGAGTTACGATTAGTGCTAGGTCTTGATTCGCTTGACGCTGCTG`: “fitted relative affinity” -0.0893 z-score.

Single results of other studies
For `PhoQ, residues 284 288 289 292 302 303 GTAMQF`, the fold induction was 8.6 (PhoP, residues 12 14 15 18 19 QYFSL (Escherichia coli, UniProt P23836); Sort-seq, refers to: YFP reporter; E. coli; PhoQ-PhoP variant library, with: 10 µM Mg2+; relative to: high Mg2+ state, higher = stronger signaling).
